Measurements gathered from unrelated publications.
Parts stem from different laboratories: compare values within a part only.

Study 1 — technique: protein binding microarray; form: double-stranded DNA, one strand shown; matrix: in vitro; concentration: not given; reference: not given; direction: higher = stronger binding; endpoint: E-score
Target: Histone acetyltransferase KAT6A, winged helix 1, GST fusion (KAT6A, Homo sapiens, UniProt Q92794, residues 1-85)
Setting: 8-mer, flanks averaged, mean of 2 arrays, mostly near background
Target sequence (chain): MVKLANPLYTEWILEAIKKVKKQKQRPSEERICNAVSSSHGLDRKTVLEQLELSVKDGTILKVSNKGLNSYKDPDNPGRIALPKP
AGACGACG: 0.113
ATACTGCC: 0.0561
TACTAAGA: 0.011

Study 2 — technique: RNA Bind-n-Seq; form: RNA; matrix: in vitro; concentration: 365 nM; reference: no-protein control; direction: higher = stronger binding; endpoint: RBNS enrichment (R)
Target: RNA binding protein fox-1 homolog 2, RRM domain, GST-SBP tag (RBFOX2, Homo sapiens, UniProt O43251-10, residues 100-194)
Setting: natural RNA segment, single round, ends assumed
Target sequence (chain): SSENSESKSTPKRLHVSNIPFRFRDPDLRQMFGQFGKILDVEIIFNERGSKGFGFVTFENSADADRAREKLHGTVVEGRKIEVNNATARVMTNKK
GGGAGUUCUACAGUCCGACGAUCAUAAUCCUACUGUGAAGCUGUCGUUGAGAACUUAGGUUGGCACGUAGCGUCUCAAGGUAUGCGUUCUCUCAAAGGAAAGCUAUGCAUCGCUGCUUCGUUGUCUGAUUUUGUGGAAUUCUCGGGUGCCAA: 0.357
GGGAGUUCUACAGUCCGACGAUCUUACCCUCAGCCACUUCCUCUGGCUGUCACAGAACAGGAUGGUGGCCUGGGGGAUGCACACUUGUAGCCUCAGAGCUAAGAGGACUCGGUGGAUGGAGCAAGACUGUGAAUGGAAUUCUCGGGUGCCAA: 0.63
GGGAGUUCUACAGUCCGACGAUCGAACGACAUAAAGAAAGCUCUACAAUCAAAAUGAAUACUUGAUCAAUGAAAUGUCACAUUAUUCAUCCUGAGUCCGAGACUCAAAUUUUCUGCCCCAGCCAAAAUAAUCUUGGAAUUCUCGGGUGCCAA: 0.35

Study 3 — technique: Spec-seq; form: double-stranded DNA, one strand shown; matrix: in vitro; concentration: not given; setting: whole probe, mean of replicates; reference: not given; direction: lower = stronger binding; endpoint: relative binding energy
Target: POU, POU domain (Salpingoeca helianthica)
Construct (chain): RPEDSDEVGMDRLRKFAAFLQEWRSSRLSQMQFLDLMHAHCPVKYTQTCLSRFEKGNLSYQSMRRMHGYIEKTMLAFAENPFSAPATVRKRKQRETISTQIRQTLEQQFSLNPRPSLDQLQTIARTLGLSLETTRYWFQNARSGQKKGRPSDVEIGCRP
GAGTCGTCTCGTCAGCACATGCAACTCCGTAGAGCACTCAGGTC: 1.06 ln ratio
GAGTCGTCTCGTCAGCACATTACCATCCGTAGAGCACTCAGGTC: 0.693 ln ratio
GAGTCGTCTCGTCAGCACGCCATAATCCGTAGAGCACTCAGGTC: 0.522 ln ratio

Further values, each from its own experiment
PhoQ, residues 284 288 289 292 302 303 NSMLDC
fold induction (PhoP, residues 12 14 15 18 19 FWNTL (Escherichia coli, UniProt P23836); Sort-seq, measured: YFP reporter; E. coli; PhoQ-PhoP variant library, with: 10 µM Mg2+; reference: high Mg2+ state, higher = stronger signaling): 18.2

Some of these lines once more (study 3):
GAGTCGTCTCGTCAGCACGCCATAATCCGTAGAGCACTCAGGTC: 0.522 ln ratio
